Measured values from different studies.
Every numbered part comes from another study and shows a few of its results, in no order. Changes are numbered by the printed parent chain.

Block 1
Target: Histone acetyltransferase KAT6A, both winged helices, GST fusion (KAT6A, Homo sapiens, UniProt Q92794, residues 1-181)
Method: protein binding microarray
Molecule type: double-stranded DNA, one strand shown
Sample: in vitro
Concentration: not given
Notes: 8-mer, flanks averaged, mean of 2 arrays, mostly near background
Baseline: not given
Reading: higher = stronger binding
Target sequence (chain): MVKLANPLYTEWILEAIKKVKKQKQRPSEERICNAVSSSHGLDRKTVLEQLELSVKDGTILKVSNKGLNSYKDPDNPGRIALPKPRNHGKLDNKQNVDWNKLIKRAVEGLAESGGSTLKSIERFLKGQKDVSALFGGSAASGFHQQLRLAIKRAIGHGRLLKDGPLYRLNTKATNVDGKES
For `TGATGGCA`, the E-score was -0.157.
For `CCCGTAGA`, the E-score was 0.18.
The E-score of `CGTGATCA` is reported as 0.0657.
The E-score of `AGACCTAG` is reported as -0.0426.
`AAAATGGA` has an E-score of -0.0719.
`CCCCAGAC` gave an E-score of -0.225.
For `GATTAAGA`, the E-score was -0.0714.
For `ACAGCATA`, the E-score was -0.00709.
`CCTTCGAA` has an E-score of -0.073.
The E-score of `CTACATAC` is reported as 2e-05.
With `CACTGCAC` the E-score was -0.0917.
`GAGTAAAA` gave an E-score of -0.194.
For `CCCAGTTC`, the E-score was -0.258.
For `ACCCCCAA`, the E-score was -0.2.
The E-score of `GAGGCAAC` is reported as 0.00352.
For `AAATTCTC`, the E-score was -0.00451.
`TAGCACCA` has an E-score of -0.069.

Block 2
Target: CCND3, cyclin fold, Cln2 fusion (human)
Method: yeast growth competition, sequencing
Sample: yeast
Notes: weak parent motif
Baseline: not given
Reading: higher = stronger binding
Starting sequence: SAMHD1 docking peptide (human); ASKSRVQLFKDDP; partner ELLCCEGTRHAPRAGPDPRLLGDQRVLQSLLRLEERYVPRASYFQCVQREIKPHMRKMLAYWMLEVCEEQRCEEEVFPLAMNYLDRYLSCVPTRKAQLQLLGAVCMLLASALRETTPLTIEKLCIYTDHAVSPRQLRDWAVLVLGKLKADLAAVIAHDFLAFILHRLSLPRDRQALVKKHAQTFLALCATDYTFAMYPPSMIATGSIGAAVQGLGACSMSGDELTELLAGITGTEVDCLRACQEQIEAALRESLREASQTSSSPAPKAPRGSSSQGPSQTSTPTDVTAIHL
`K10M`: “normalised enrichment score” 0.147.
`Q7V` — result for “normalised enrichment score”: 0.329.
`Q7K`: “normalised enrichment score” 0.16.
`D11N`: “normalised enrichment score” 0.212.
`V6K` — result for “normalised enrichment score”: 0.387.
`F9K`: “normalised enrichment score” -0.06.
`L8M`: “normalised enrichment score” 0.293.
`D12H`: “normalised enrichment score” 0.0853.
Under “normalised enrichment score”, `S2N` is recorded as 0.164.
`R5C`: “normalised enrichment score” 0.385.
`L8P`: “normalised enrichment score” -0.0905.
Under “normalised enrichment score”, `K10W` is recorded as 0.0341.

Block 3
Target: Ras GTPase-activating protein-binding protein 1, full length (G3BP1, Homo sapiens, UniProt Q13283)
Sequence of UniProt Q13283 (whole entry, looked up): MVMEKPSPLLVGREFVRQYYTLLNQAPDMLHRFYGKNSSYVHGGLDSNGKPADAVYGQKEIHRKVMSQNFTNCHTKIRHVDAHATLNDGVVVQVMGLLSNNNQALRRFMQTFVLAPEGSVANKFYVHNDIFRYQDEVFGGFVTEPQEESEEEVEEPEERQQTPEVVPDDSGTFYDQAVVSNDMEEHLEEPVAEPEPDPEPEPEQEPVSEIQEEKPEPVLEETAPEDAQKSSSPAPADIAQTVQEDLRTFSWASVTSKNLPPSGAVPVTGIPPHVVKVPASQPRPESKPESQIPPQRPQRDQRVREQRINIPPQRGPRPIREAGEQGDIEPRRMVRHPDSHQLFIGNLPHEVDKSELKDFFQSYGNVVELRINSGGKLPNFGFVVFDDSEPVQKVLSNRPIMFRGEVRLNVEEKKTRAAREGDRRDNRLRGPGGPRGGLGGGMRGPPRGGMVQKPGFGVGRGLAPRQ
Method: RNA Bind-n-Seq
Molecule type: RNA
Sample: in vitro
Concentration: 200 nM
Notes: whole 134-nt RNA, ends assumed
With: 150 mM KCl
Baseline: input library
Reading: higher = stronger binding
Shared flanks, not repeated: GGGAGUUCUACAGUCCGACGAUC … UGGAAUUCUCGGGUGUCAAGG
`UAACUUUAGAGGAGGAUCUGAUGGAUAUGGCAGUGGCCGUGGAUUUGGGGAUGGCUAUAAUGGGUAUGGAGGAGGACCUGGAGGUGGCAA` gave a log2 enrichment of 0.225.
`UCAAGUCCUGUGCUACACAUCGUAUGUACCGAAUCGGUUUUUGGUUUUUGGAGGAAAGUAUUAUGUUACGCCGUUCGGAUCUGCACUUCC` gave a log2 enrichment of -0.735.
With `UAACUUUAGAGGAGGAUCUGAUGGAUAUGGCAGUGGACGUGGAUUUGGGGAUGGCUAUAAUGCGUAUGGAGGAGGACCUGGAGGUGGCAA` the log2 enrichment was 0.121.
The log2 enrichment of `CACAGACAACACGCACCCACACAGACACAGAGGGAAGGGGUUGGGAUGGGGACAGGGGGCACAGCAGGGCGGGGUAGGACCCCAGCCCCU` is reported as 1.61.
`AGUCCUGUGCUACACAUCGUAUGUACCGAAUCGGGAAAAAGGAAAAAGGGAAAAAGGAAAGUAUUAUGUUACGCCGUUCGGAUCUGCACU` gave a log2 enrichment of -0.862.
For `AAGUCCUGUGCUACACAUCGUAUGUACCGAAUCGGUUUUUGGUUUGGAAAAAAAGGAAAGUAUUAUGUUACGCCGUUCGGAUCUGCACUU`, the log2 enrichment was -1.46.
With `CCUGUGCUACACAUCGUAUGUACCGAAUCGGGAAAAAAAGGGAAAAAAAGGAAAAAAAGGAAAGUAUUAUGUUACGCCGUUCGGAUCUGC` the log2 enrichment was -0.698.
`CUGUGCUACACAUCGUAUGUACCGAAUCGGGGCCCCCCCGGGCCCCCCCGGCCCCCCCGGGAAAGUAUUAUGUUACGCCGUUCGGAUCUG` has a log2 enrichment of -0.697.
For `UGGGAGGUGGAUUUUCUUUAUUUUUUUAGCUCAUUUCCAGGGGUGGGAAUUUUUUUUUAAUAUGUGUCAUGAAUAAAGUUGUUUUUGAAA`, the log2 enrichment was 0.228.
For `CUGUGCUACACAUCGUAUGUACCGAAUCGGGGAAAAAAAGGGGUUUUUGGGGAAAAAGGGGAAAGUAUUAUGUUACGCCGUUCGGAUCUG`, the log2 enrichment was -0.173.
`CACAGACAACACGCACCCACACAGACACAGAGGGAAGGGGUUGGGAUGGGGACAGGGUGCACAGCAGGGCCGGGUAGGACCCCAGCCCCU` gave a log2 enrichment of 2.02.
For `CAAGUCCUGUGCUACACAUCGUAUGUACCGAAUCGGGAGGGUGGGAAAAAAAGGGAAAGUAUUAUGUUACGCCGUUCGGAUCUGCACUUC`, the log2 enrichment was 0.307.
`ACCAUGCAGGUGGGCAUCUUUGGGAAGUGGGGCAAGGGAAAGAUAGGGAGGGGGGUAACACUUUGGGAACAGGUGGUCCCAGGUCGUUUC` gave a log2 enrichment of 1.05.
The log2 enrichment of `UGUCGGGGCCAAAGUGGUAACGAACGCCCGCAGCCCGGGGGCUCGAUGCUAUGGAUUCGUCACCAUGUCGACAUCUGACGAGGCGACCAA` is reported as -2.39.

Mixed results
`PhoQ, residues 284 288 289 292 302 303 TAVSDG` has a fold induction of 0.536 (PhoP, residues 12 14 15 18 19 AQCLL (Escherichia coli, UniProt P23836); Sort-seq, item: YFP reporter; E. coli; PhoQ-PhoP variant library, with: 10 µM Mg2+; baseline: high Mg2+ state, higher = stronger signaling).

Some of these lines once more (block 2):
`Q7V` — result for “normalised enrichment score”: 0.329.
`Q7K`: “normalised enrichment score” 0.16.
`D11N`: “normalised enrichment score” 0.212.
`V6K` — result for “normalised enrichment score”: 0.387.
`F9K`: “normalised enrichment score” -0.06.
